Measured values gathered from unrelated publications.
Parts stem from different laboratories: compare values within a part only.
Chain of UniProt P20309 (whole entry, looked up): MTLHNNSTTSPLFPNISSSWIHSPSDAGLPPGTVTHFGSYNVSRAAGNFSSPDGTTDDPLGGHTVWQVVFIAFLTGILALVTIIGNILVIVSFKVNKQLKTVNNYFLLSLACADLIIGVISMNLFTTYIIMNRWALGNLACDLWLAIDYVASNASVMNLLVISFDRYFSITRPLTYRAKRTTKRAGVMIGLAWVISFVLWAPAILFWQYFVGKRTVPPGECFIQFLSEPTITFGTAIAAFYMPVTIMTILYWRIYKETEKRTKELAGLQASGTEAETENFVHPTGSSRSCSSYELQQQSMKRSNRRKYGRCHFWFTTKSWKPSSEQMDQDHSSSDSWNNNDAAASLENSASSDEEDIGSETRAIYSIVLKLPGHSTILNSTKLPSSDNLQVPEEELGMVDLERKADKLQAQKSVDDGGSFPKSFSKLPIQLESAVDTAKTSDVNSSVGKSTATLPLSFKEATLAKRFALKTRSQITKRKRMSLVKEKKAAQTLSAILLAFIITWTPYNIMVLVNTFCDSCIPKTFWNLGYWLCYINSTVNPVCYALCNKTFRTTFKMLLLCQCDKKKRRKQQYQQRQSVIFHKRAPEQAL
Chain of UniProt Q9BYT3 (whole entry, looked up): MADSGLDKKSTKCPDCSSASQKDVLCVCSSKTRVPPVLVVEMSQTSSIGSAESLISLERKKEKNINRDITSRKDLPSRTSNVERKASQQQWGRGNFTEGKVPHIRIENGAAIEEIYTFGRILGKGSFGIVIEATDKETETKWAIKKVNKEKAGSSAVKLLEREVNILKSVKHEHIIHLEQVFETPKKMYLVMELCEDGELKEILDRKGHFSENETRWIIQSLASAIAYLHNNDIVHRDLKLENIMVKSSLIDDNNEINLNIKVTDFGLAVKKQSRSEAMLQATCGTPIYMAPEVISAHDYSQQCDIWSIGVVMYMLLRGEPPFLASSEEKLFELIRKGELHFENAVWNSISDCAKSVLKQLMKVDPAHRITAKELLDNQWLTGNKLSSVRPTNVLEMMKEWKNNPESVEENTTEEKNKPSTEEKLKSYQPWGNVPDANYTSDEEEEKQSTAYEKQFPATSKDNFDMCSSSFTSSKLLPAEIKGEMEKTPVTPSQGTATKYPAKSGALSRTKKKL
Chain of UniProt P10721 (whole entry, looked up): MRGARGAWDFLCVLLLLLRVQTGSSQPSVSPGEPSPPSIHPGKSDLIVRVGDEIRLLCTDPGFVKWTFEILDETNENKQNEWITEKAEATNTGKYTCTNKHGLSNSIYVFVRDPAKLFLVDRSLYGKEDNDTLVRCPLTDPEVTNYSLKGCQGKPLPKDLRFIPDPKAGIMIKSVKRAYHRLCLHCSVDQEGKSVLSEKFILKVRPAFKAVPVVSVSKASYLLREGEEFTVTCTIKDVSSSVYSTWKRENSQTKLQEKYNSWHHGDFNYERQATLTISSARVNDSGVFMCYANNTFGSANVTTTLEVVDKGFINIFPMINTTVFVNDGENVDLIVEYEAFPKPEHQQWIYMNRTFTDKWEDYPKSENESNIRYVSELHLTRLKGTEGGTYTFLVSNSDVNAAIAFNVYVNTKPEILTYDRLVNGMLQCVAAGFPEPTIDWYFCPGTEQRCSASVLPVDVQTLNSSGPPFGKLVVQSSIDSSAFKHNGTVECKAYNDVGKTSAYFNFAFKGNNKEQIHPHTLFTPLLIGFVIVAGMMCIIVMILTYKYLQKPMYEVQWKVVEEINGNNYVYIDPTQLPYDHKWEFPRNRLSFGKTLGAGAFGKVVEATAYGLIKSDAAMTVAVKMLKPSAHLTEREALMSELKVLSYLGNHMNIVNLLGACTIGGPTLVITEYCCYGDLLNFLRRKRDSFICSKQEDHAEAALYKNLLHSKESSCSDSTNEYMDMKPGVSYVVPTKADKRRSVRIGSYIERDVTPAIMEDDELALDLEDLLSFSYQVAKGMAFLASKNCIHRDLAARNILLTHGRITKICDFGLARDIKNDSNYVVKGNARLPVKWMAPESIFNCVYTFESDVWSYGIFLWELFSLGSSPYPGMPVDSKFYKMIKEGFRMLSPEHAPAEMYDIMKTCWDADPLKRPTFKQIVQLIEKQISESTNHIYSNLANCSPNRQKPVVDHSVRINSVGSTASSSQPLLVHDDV
Chain of UniProt Q05655 (whole entry, looked up): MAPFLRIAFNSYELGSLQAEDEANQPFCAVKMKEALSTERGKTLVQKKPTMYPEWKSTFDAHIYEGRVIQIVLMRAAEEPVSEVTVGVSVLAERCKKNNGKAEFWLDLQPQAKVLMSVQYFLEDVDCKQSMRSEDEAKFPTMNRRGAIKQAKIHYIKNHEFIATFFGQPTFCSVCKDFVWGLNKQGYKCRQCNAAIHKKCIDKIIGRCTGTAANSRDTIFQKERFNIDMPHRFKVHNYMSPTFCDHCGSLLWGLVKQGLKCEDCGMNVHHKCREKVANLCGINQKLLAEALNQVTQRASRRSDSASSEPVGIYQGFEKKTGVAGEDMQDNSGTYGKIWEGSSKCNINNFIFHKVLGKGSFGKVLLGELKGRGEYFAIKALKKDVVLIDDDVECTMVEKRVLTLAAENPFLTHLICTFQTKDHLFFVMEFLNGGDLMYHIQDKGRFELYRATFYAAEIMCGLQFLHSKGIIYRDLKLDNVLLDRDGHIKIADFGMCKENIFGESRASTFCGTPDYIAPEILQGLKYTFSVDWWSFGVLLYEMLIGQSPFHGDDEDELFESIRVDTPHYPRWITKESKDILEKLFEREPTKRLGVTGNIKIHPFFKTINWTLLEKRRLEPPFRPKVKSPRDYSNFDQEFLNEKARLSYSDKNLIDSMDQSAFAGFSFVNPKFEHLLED
Chain of UniProt P31645 (whole entry, looked up): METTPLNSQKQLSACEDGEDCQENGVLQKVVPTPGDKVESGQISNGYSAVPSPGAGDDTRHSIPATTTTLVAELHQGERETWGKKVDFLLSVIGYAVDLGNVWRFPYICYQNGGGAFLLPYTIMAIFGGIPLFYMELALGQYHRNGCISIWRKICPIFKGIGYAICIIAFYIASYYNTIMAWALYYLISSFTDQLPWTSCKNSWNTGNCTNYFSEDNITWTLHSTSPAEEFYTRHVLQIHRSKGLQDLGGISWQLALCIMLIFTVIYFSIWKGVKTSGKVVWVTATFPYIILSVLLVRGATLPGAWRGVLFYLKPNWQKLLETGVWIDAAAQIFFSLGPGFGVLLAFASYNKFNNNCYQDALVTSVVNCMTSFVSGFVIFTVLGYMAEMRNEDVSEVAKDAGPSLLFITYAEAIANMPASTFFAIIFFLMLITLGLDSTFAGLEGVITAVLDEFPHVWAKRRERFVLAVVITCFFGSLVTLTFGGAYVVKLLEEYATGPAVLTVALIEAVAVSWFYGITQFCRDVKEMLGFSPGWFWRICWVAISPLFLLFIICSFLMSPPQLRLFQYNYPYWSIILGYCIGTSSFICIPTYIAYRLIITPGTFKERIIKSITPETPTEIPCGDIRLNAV
Chain of UniProt Q12851 (whole entry, looked up): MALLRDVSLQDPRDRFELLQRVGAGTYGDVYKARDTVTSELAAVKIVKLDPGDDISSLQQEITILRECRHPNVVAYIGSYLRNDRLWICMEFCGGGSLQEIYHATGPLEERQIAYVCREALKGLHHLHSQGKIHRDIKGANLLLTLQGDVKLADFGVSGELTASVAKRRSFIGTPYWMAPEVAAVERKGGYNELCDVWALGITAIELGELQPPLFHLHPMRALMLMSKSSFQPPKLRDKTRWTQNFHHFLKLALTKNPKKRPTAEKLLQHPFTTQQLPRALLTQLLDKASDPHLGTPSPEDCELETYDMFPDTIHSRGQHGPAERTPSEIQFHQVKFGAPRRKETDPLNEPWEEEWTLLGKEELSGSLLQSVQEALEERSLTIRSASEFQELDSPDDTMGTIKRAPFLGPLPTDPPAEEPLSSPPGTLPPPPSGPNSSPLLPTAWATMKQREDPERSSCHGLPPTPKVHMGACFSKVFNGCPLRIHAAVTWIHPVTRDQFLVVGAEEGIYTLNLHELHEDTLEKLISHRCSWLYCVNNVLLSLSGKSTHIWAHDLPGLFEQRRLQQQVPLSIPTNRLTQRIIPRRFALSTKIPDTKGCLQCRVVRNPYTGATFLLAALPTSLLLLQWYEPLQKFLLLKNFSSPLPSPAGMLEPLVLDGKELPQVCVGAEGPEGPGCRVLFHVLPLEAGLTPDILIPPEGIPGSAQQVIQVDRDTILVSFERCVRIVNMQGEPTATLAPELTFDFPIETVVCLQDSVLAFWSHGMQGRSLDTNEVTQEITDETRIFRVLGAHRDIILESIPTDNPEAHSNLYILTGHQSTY
Chain of UniProt P48729 (whole entry, looked up): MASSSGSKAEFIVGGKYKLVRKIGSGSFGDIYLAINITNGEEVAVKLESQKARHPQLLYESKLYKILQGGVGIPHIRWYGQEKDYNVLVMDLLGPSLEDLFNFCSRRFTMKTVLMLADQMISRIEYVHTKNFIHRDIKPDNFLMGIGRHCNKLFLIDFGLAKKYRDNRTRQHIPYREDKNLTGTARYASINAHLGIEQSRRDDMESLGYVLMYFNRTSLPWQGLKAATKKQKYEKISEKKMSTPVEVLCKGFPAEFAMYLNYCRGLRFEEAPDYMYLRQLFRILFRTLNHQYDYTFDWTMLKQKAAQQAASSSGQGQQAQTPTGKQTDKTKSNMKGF
Chain of UniProt Q9Y243 (whole entry, looked up): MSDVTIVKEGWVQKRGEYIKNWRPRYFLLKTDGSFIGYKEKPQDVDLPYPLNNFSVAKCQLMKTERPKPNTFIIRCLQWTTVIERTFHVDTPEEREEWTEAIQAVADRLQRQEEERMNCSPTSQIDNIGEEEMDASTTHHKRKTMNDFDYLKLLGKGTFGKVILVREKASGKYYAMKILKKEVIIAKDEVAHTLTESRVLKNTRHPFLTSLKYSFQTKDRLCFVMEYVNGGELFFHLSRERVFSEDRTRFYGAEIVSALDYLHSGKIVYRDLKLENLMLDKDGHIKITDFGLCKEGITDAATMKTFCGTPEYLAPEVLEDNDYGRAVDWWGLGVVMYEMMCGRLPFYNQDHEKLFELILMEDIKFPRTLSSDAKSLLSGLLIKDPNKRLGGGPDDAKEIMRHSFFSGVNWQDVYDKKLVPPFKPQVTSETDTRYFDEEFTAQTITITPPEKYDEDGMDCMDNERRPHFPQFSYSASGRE

Series 1 — concentration: 10 µM
SMILES: CNC(=O)c1cc(C(=O)N[C@H]2[C@@H]3COC[C@@H]32)cc2c1O[C@H](CF)[C@H]2c1ccccc1
| target | effect on | technique | inhibition |
| --- | --- | --- | --- |
| Muscarinic acetylcholine receptor M3 (CHRM3, Homo sapiens, UniProt P20309) | binding | radioligand binding | 11.2% |
| Sodium-dependent serotonin transporter (SLC6A4, Homo sapiens, UniProt P31645) | binding | radioligand binding | 27.2% |
| Kappa-type opioid receptor (OPRK1, Homo sapiens, UniProt P41145) | binding | radioligand binding | 1.22% |
| 5-hydroxytryptamine receptor 2A (HTR2A, Homo sapiens, UniProt P28223) | cell-free assay | – | 13.4% |

Series 2 — effect on: enzyme activity; mode: inhibitor; concentration: 0.5 µM
SMILES: N/C(=N\[N+](=O)[O-])N/N=C\c1ccc(-c2cccc([N+](=O)[O-])c2)o1
| target | technique | baseline | remaining activity [%] |
| --- | --- | --- | --- |
| Mast/stem cell growth factor receptor Kit (KIT, Homo sapiens, UniProt P10721) | – | control | 96.4 |
| Serine/threonine-protein kinase PLK2 (PLK2, Homo sapiens, UniProt Q9NYY3) | – | control | 107 |
| Mitogen-activated protein kinase kinase kinase kinase 2 (MAP4K2, Homo sapiens, UniProt Q12851) | – | control | 115 |
| RAC-gamma serine/threonine-protein kinase (AKT3, Homo sapiens, UniProt Q9Y243) | – | control | 94.3 |
| Mitogen-activated protein kinase 12 (MAPK12, Homo sapiens, UniProt P53778) | – | control | 93.4 |
| Serine/threonine-protein kinase 33 (STK33, Homo sapiens, UniProt Q9BYT3) | radiometric | – | 102 |
| Casein kinase I isoform alpha (CSNK1A1, Homo sapiens, UniProt P48729) | – | control | 113 |
| Tyrosine-protein kinase BTK (BTK, Homo sapiens, UniProt Q06187) | – | control | 110 |
| Serine/threonine-protein kinase Nek4 (NEK4, Homo sapiens, UniProt P51957) | – | control | 103 |
| Dual specificity mitogen-activated protein kinase kinase 6 (MAP2K6, Homo sapiens, UniProt P52564) | – | control | 111 |
| Protein kinase C delta type (PRKCD, Homo sapiens, UniProt Q05655) | – | control | 94.2 |
| Mitogen-activated protein kinase 13 (MAPK13, Homo sapiens, UniProt O15264) | – | control | 101 |

Series 3 — cell line: HEK-293T/ACE2; concentration: concentration not given; time: 16 (unit not given); baseline: vehicle
| SMILES | viability [%] |
| --- | --- |
| CC(S)C(=O)NCC(=O)O (stereo not shown) | 102 |
| N[C@@H](CC(=O)N1CCn2c(nnc2C(F)(F)F)C1)Cc1cc(F)c(F)cc1F | 102 |
| CCCCCCOC(=O)NC(=N)c1ccc(NCc2nc3cc(C(=O)N(CCC(=O)OCC)c4ccccn4)ccc3n2C)cc1 | 98.7 |
| CCOC(=O)C1=C(COCCN)NC(C)=C(C(=O)OC)C1c1ccccc1Cl (stereo not shown) | 93.3 |
| CC(=O)Oc1cc2c(s1)CCN(C(C(=O)C1CC1)c1ccccc1F)C2 (stereo not shown) | 103 |
| N#Cc1ccc(C(c2ccc(C#N)cc2)n2cncn2)cc1 | 101 |
| N=C(N)NC(=O)c1nc(Cl)c(N)nc1N | 103 |

Further values, each from its own experiment — species: mouse; medium: microsomes or S9; concentration: 2 µM; time: 0.5 h
| Structure (SMILES) | remaining compound [%] |
| --- | --- |
| CC(=O)O[C@@H]1C[C@@]2(C)[C@H](c3ccoc3)C[C@H]3O[C@]32[C@]2(C)C(=O)C(O)=C3C(C)(C)C(=O)C=C[C@]3(C)C12 (stereo partly shown) | > 99 |
| Brc1cnc2n[se]nc2c1 | 91.2 |

Repeated from above (series 2):
| target | technique | baseline | remaining activity [%] |
| --- | --- | --- | --- |
| Casein kinase I isoform alpha (CSNK1A1, Homo sapiens, UniProt P48729) | – | control | 113 |
| Tyrosine-protein kinase BTK (BTK, Homo sapiens, UniProt Q06187) | – | control | 110 |
